# Published values pooled from the literature.
# Each line is one published result; not all experiments were run side by side. ± gives the spread as reported.
# Cell line: MCF7
SMILES,assay,conditions,IC50
CCCCn1cc(C(=O)O)c(=O)c2cc(F)c(Nc3ccccc3OC)c([N+](=O)[O-])c21,"cell growth or viability, SRB",,70.9 µM
O=C(CCCCCCC(=O)Nc1ccc(-[c-]2cccc2)cc1)NO.[Fe+2].c1cc[cH-]c1,cell growth or viability,,3.13 µM
CC1=[N+]2N=C(c3ccccc3)[O][Pd-2]2([Cl])[O+]=C2Oc3ccccc3C=C21 (stereo not drawn),"cytotoxicity, MTT",24 h,19.5 ± 1.5 µM
COc1ccc(NC(=O)N/N=C2\CC3(CCN(C)CC3)Oc3ccccc32)cc1,"cell growth, MTT",48 h,6.67 ± 0.28 µM
CCCCn1cc(C(=O)O)c(=O)c2cc(F)c3[nH]nnc3c21,"cell growth, SRB",72 h,77 ± 11.8 µg/mL
O=C(CCCCCCC(=O)Nc1ccccc1-[c-]1cccc1)NO.[Fe+2].c1cc[cH-]c1,cell growth or viability,,1.9 µM
CCCCn1cc(C(=O)O)c(=O)c2cc(F)c(Nc3cccc(OC)c3)c([N+](=O)[O-])c21,"cell growth, SRB",72 h,52.8 ± 3.35 µg/mL
CN1CCC2(CC1)C/C(=N\NC(=O)Nc1ccccc1)c1ccccc1O2,"cell growth, MTT",48 h,1.67 ± 0.07 µM
CCCCn1cc(C(=O)O)c(=O)c2cc(F)c(N)c([N+](=O)[O-])c21,"cell growth or viability, SRB",,390 µM

# Repeated from above:
SMILES,assay,conditions,IC50
CCCCn1cc(C(=O)O)c(=O)c2cc(F)c(Nc3ccccc3OC)c([N+](=O)[O-])c21,"cell growth or viability, SRB",,70.9 µM
